Published values from different studies.
Lines come from different studies, so protocols differ. “And” joins repeats or separate records; there may be more than shown. ± marks the error that the study gave. In brackets after ≈: the same amount, converted by molar mass.

CCCCCCCCCCCC(=O)NCCCC[C@H](NC(=O)CCCCCCCCCCC)C(=O)N[C@@H](CCCCNC(=O)CCCCCCCCCCC)C(=O)NCC(=O)NCC(=O)NCC(=O)N[C@@H](CS)C(=O)N[C@@H](CCCNC(=N)N)C(=O)N[C@@H](CCCCN)C(=O)N1CCC[C@H]1C(=O)N[C@@H](CS)C(=O)N[C@@H](CCCNC(=N)N)C(=O)N[C@@H](CCCCN)C(=O)N1CCC[C@H]1C(N)=O
MIC (Candida albicans; broth microdilution; SP 3902, RPMI-1640; 48 h, 30 °C): > 128 µM

CC(C)[C@H]1NC(=O)[C@H](Cc2ccccc2)NC(=O)[C@@H](C(C)C)NC(=O)[C@@H](C)NC(=O)[C@H](CO)NC(=O)[C@@H](Cc2c(-c3ccc(-c4cccc5ccccc45)cc3)[nH]c3ccccc23)NC(=O)[C@@H](CO)NC1=O
MIC90 (Candida albicans; broth dilution): > 50 µM

[O-][N+]1=C(Cc2ccccc2)C2=NCCCN2c2ccccc21
MIC50 (Fusobacterium nucleatum; microbial growth): 1 µg/mL (≈ 3.43 µM)

CC[C@H](C)[C@H](NC(=O)[C@H](CCCCN)NC(=O)[C@H](CCCCN)NC(=O)[C@H](Cc1ccccc1)NC(=O)[C@H](Cc1ccccc1)NC(=O)[C@H](CCCCN)NC(=O)[C@H](CCCCN)NC(=O)[C@H](Cc1ccccc1)NC(=O)[C@H](CCCNC(=N)N)NC(=O)[C@@H](N)CCCCN)C(=O)N[C@@H](CCCCN)C(=O)N[C@@H](CCCCN)C(=O)N[C@@H](CO)C(=O)N[C@H](C(=O)N[C@@H](CCCCN)C(=O)N[C@@H](CCCCN)C(=O)N[C@@H](CCCNC(=N)N)C(=O)N[C@H](C(=O)N[C@@H](CCCCN)C(=O)N[C@@H](CCCCN)C(=O)N[C@@H](CC(C)C)C(=O)N[C@@H](Cc1ccccc1)C(=O)N[C@@H](CCCCN)C(=O)N[C@@H](CCCCN)C(=O)N1CCC[C@H]1C(=O)N[C@@H](CCCNC(=N)N)C(=O)N[C@H](C(=O)N[C@H](C(=O)N1CCC[C@H]1C(=O)N[C@H](C(=O)N[C@@H](CO)C(=O)N[C@H](C(=O)N1CCC[C@H]1C(=O)N[C@@H](Cc1ccccc1)C(=O)O)[C@@H](C)CC)[C@@H](C)CC)[C@@H](C)CC)C(C)C)C(C)C)C(C)C
MBC (Klebsiella pneumoniae; K1 clinical isolate; 20 h): 8 µg/mL (≈ 1.9 µM)

C=CCN1C(=O)C(CC=C)(C(=O)OCC)Oc2cc(F)ccc21 (stereo not drawn)
stem length inhibition (Arabidopsis thaliana; Col-0, seed germination, dark; 200 µg/mL, 7 days, 22 °C): 100%

[O-][N+]1=C(c2ccccc2)C2=NCCCN2c2ncccc21
MIC50 (Fusobacterium nucleatum; microbial growth): 0.125 µg/mL (≈ 0.449 µM)

Cc1ccc(Nc2ncnc3ccc(-c4ccc(S(=O)(=O)N5CCOCC5)cc4)cc23)cc1
EC50 (Plasmodium falciparum; parasite growth, SYBR Green; D6; blood stage): 1.7 µM

CC(C)[C@H]1NC(=O)[C@H](Cc2ccccc2)NC(=O)[C@@H](C(C)C)NC(=O)[C@@H](C)NC(=O)[C@H](CO)NC(=O)[C@@H](Cc2c(-c3ccc(-c4ccc5ccccc5c4)cc3)[nH]c3ccccc23)NC(=O)[C@@H](C)NC1=O
MIC90 (Candida albicans; broth dilution): > 50 µM

CN1CCN(S(=O)(=O)c2ccc(-c3ccc4ncnc(Nc5ccc(OCc6ccccc6)cc5)c4c3)cc2)CC1
EC50 (Plasmodium falciparum; parasite growth, SYBR Green; D6; blood stage): 0.041 µM

CN(C)c1nc(NCc2cccc(-c3ccccc3)c2)c(/N=N/c2ccc(Cl)cc2)c(N(C)C)n1
mortality (Plutella xylostella; leaf dipping; 200 mg/L, 96 h): 90 ± 6.7%

CCc1nn(C)c2nc(-c3ccc(C(=O)O)cc3)nc(NCc3ccccc3)c12
parasite number (Cryptosporidium parvum; HCT-8; 12 x EC90, 24 h; reference: DMSO control): 37.6% and 32.5% and 30.5% and 29.8%

CCOC(=O)C1(Cc2ccccc2)Oc2ccccc2N(Cc2ccccc2)C1=O (stereo not drawn)
inhibition (Arabidopsis thaliana; root length, petri dish germination; Col-0, 1/2 MS medium; 50 µg/mL, 7 days, 22 °C, dark): 56.9%

O=S(=O)(c1ccc(-c2ccc3ncnc(Nc4ccc(OCc5cccc(F)c5)cc4)c3c2)cc1)N1CCOCC1
EC50 (Plasmodium falciparum; parasite growth, SYBR Green fluorescence; W2, drug-resistant): 2 µM

Cc1cc(C(=O)Nc2nc3cccc(C)c3n2[C@H]2CCCCN(C(=O)/C=C/CN(C)C)C2)ccn1
survival (Trypanosoma brucei brucei; 2T1 CLK1 overexpressing; 0.1563 µM, DMSO pretreated; reference: maximum): 66.8% and 63.9% and 56% and 62.2%

O=C(c1cccc(-c2ccc3ncnc(Nc4ccc(OCc5cccc(F)c5)c(Cl)c4)c3c2)c1)N1CCCC1
EC50 (Plasmodium falciparum; parasite growth, SYBR Green fluorescence; W2, drug-resistant): 0.088 µM

CCOC(=O)C1(Cc2ccc(C#N)cc2)Oc2cc(F)ccc2N(Cc2ccc(C#N)cc2)C1=O (stereo not drawn)
inhibition (Arabidopsis thaliana; stem length, petri dish germination; Col-0, 1/2 MS medium; 200 µg/mL, 7 days, 22 °C, dark): 51.5%

Fc1cccc(COc2ccc(Nc3ncnc4ccc(-c5cccc(-n6cccn6)c5)cc34)cc2Cl)c1
EC50 (Plasmodium falciparum; parasite growth, SYBR Green; D6; blood stage): > 15 µM

CCOC(=O)C1(Cc2cccc(C)c2)Oc2cc(F)ccc2N(Cc2cccc(C)c2)C1=O (stereo not drawn)
inhibition (Arabidopsis thaliana; root length, petri dish germination; Col-0, 1/2 MS medium; 50 µg/mL, 7 days, 22 °C, dark): 52%

Cc1cc(Cl)cc(S(C)=NC#N)c1NC(=O)c1cc(Br)nn1-c1ncccc1Cl (stereo not drawn)
mortality (Spodoptera litura; leaf-dip; third instar larvae; 6.25 ppm, 48 h): 43.3%

CC(=O)c1c(O)c(C)c(O)c2c1OC1=CC(=O)C(=C(C)NCCCC(=O)OC3OC4OC5(C)CCC6C(C)CCC(C3C)C46OO5)C(=O)C12C (stereo not drawn)
mean survival time (Plasmodium berghei; ANKA GFP, NMRI mouse; oral, 4 x 30 mg/kg): 16 days

CN(C(=O)c1ccn2ncc(-c3ccc(C(N)=O)cc3)c2c1)c1ccc(C#N)cn1
faecal Nluc luminescence (Cryptosporidium parvum; UGA1 Nluc, IFN-gamma knockout C57BL/6 mice, faeces; oral, 10 mg/kg daily, 120 h post infection, treatment days 11-17; higher means more parasites): 6120 a.u. and 151 a.u. and 7190 a.u. and 4380 a.u.

C[C@H]1[C@H](OC(=O)CCC(=O)OCc2nnn(-c3cc4ccc(O)cc4oc3=O)c2COC(=O)CCC(=O)O[C@@H]2O[C@@H]3O[C@@]4(C)CC[C@H]5[C@H](C)CC[C@@H]([C@H]2C)[C@@]35OO4)O[C@@H]2O[C@@]3(C)CC[C@H]4[C@H](C)CC[C@@H]1[C@@]24OO3
median survival (Plasmodium berghei; NK65/GFP, infected mice; oral gavage, 65 µmol/kg once daily, 96 h dosing period): 32 days

CCOC(=O)C1(CC#N)Oc2cc(F)ccc2N(CC#N)C1=O (stereo not drawn)
inhibition (Arabidopsis thaliana; stem length, petri dish germination; Col-0, 1/2 MS medium; 200 µg/mL, 7 days, 22 °C, dark): 91.8%

Fc1cccc(COc2ccc(Nc3ncnc4ccc(-c5ccc(N6CCCCC6)cc5)cc34)cc2Cl)c1
EC50 (Plasmodium falciparum; parasite growth, SYBR Green fluorescence; C235 (TM91C235), drug-resistant): 1 µM

CC(=O)c1c(O)c(C)c(O)c2c1OC1=CC(=O)C(=C(C)NCCCCOC3OC4OC5(C)CCC6C(C)CCC(C3C)C46OO5)C(=O)C12C (mixture of isomers)
parasitaemia inhibition (Plasmodium berghei; ANKA GFP, NMRI mouse; oral, 4 x 30 mg/kg, day 4 post infection): 99.9%

CCOC(=O)C1(Cc2ccc(-c3ccccc3)cc2)Oc2cc(F)ccc2N(Cc2ccc(-c3ccccc3)cc2)C1=O (stereo not drawn)
inhibition (Arabidopsis thaliana; stem length, petri dish germination; Col-0, 1/2 MS medium; 50 µg/mL, 7 days, 22 °C, dark): 24.2%

O=S(=O)(c1cccc(-c2ccc3ncnc(Nc4ccc(OCc5cccc(F)c5)c(Cl)c4)c3c2)c1)N1CCOCC1
EC50 (Plasmodium falciparum; parasite growth, SYBR Green fluorescence; W2, drug-resistant): 0.4 µM

CCCCCCCC(=O)NCCCC[C@H](NC(=O)CCCCCCC)C(=O)N[C@@H](CCCCNC(=O)CCCCCCC)C(=O)NCC(=O)NCC(=O)NCC(=O)N[C@@H](CS)C(=O)N[C@@H](CCCNC(=N)N)C(=O)N[C@@H](CCCCN)C(=O)N1CCC[C@H]1C(N)=O
MIC (Candida albicans; broth microdilution; 58288, RPMI-1640; 48 h, 30 °C): > 128 µM

CCOC(=O)C1(Cc2c(F)cccc2F)Oc2cc(F)ccc2N(Cc2c(F)cccc2F)C1=O (stereo not drawn)
inhibition (Arabidopsis thaliana; stem length, petri dish germination; Col-0, 1/2 MS medium; 50 µg/mL, 7 days, 22 °C, dark): 42.9%

CNCCO.O=C(O)C(Cl)Cl
herbicidal inhibition (Xanthium sibiricum; 15 mg/mL, 21 days, post-emergence, greenhouse): 0%

CCCCCCCC(=O)NCCCC[C@H](NC(=O)CCCCCCC)C(=O)N[C@@H](CCCCNC(=O)CCCCCCC)C(=O)NCC(=O)NCC(=O)NCC(=O)N[C@@H](CS)C(=O)N[C@@H](CCCNC(=N)N)C(=O)N[C@@H](CCCCN)C(=O)N1CCC[C@H]1C(=O)N[C@@H](CS)C(=O)N[C@@H](CCCNC(=N)N)C(=O)N[C@@H](CCCCN)C(=O)N1CCC[C@H]1C(N)=O
MIC (Candida albicans; broth microdilution; fluconazole-resistant 56214, RPMI-1640; 48 h, 30 °C): 8 µM (≈ 14.3 µg/mL)

O=NC1=C(c2cccc([N+](=O)[O-])c2)Nc2ccccc2S1
IC50 (HIV-1 subtype C; viral replication; 96 h): 93.6 µM

CC(O)CN(CC(C)O)CC(C)O.O=C(O)C(Cl)Cl (stereo not drawn)
herbicidal inhibition (Xanthium sibiricum; 15 mg/mL, 21 days, pre-emergence, greenhouse): 0%

CCOC(=O)C1(Cc2ccccc2)Oc2cc(C)ccc2N(Cc2ccccc2)C1=O (stereo not drawn)
inhibition (Arabidopsis thaliana; stem length, petri dish germination; Col-0, 1/2 MS medium; 50 µg/mL, 7 days, 22 °C, dark): 41.1%

FC(F)(F)c1cccc(CNc2nc(NC3CCN(Cc4ccccc4)CC3)c3nc[nH]c3n2)c1
mRNA fold change (Cryptococcus neoformans; RNA-seq, item: INP52 (CNAG_01532); 48 µg/mL, 3 h; reference: untreated): 1.29

O=C(c1cccc(-c2ccc3ncnc(Nc4ccc(OCc5cccc(F)c5)c(Cl)c4)c3c2)c1)N1CCOCC1
EC50 (Plasmodium falciparum; parasite growth, SYBR Green fluorescence; C235 (TM91C235), drug-resistant): 1.2 µM

COc1ccc(C2=[N+]([O-])c3ccccc3N3CCN=C23)cc1
MIC90 (Fusobacterium nucleatum): ≤ 0.06 µg/mL

CC(C)C[C@H](NC(=O)[C@H](CC(C)C)NC(=O)[C@H](CCCCN)NC(=O)[C@H](Cc1ccccc1)NC(=O)[C@@H](NC(=O)[C@H](CCCNC(=N)N)NC(=O)[C@@H](N)CCCCN)C(C)C)C(=O)N[C@@H](CCCCN)C(=O)N[C@@H](CCCNC(=N)N)C(=O)N[C@@H](Cc1ccc(O)cc1)C(=O)N[C@@H](Cc1c[nH]c2ccccc12)C(=O)N[C@@H](CCCNC(=N)N)C(=O)N[C@@H](CCC(N)=O)C(=O)N[C@@H](CC(C)C)C(=O)N[C@@H](CCCCN)C(=O)N[C@@H](CCCCN)C(=O)N1CCC[C@H]1C(=O)N[C@H](C(=O)N[C@@H](CCCNC(=N)N)C(=O)NCCOCCOCC(=O)O)C(C)C
biofilm eradication (Pseudomonas aeruginosa and Staphylococcus aureus; crystal violet; polymicrobial biofilm; 16 to 32 µM, 24 h, 24 h mature biofilm): > 80%

CC[C@H](C)CCCCC(=O)N[C@@H](CCN)C(=O)N[C@H](C(=O)N[C@@H](CCN)C(=O)N[C@H]1CCNC(=O)[C@H]([C@@H](C)O)NC(=O)[C@H](CCN)NC(=O)[C@H](CCN)NC(=O)[C@H](CC(C)C)NC(=O)[C@@H](CC(C)C)NC(=O)[C@H](CCN)NC1=O)[C@@H](C)O
MIC fold change (Escherichia coli; daily serial passaging; ATCC 8739; highest sub-MIC, 42 days; reference: initial MIC): 3.16
